Measurements gathered from unrelated publications.
“And” joins repeats or separate records; there may be more than shown. ± marks the error that the study gave.
HDAC6: Protein deacetylase HDAC6 (HDAC6, Homo sapiens, UniProt Q9UBN7)
Alpha-amylase: Alpha-amylase (Bos taurus, UniProt Q3MHH8)
TTBK2: Tau-tubulin kinase 2 (TTBK2, Homo sapiens, UniProt Q6IQ55)
SSTR1: Somatostatin receptor type 1 (SSTR1, Homo sapiens, UniProt P30872)
Uridine nucleoside ribohydrolase: Uridine nucleoside ribohydrolase (Trichomonas vaginalis, UniProt A2FTT0)
SPHK2: Sphingosine kinase 2 (SPHK2, Homo sapiens, UniProt Q9NRA0)
TNKS2: Poly [ADP-ribose] polymerase tankyrase-2 (TNKS2, Homo sapiens, UniProt Q9H2K2)
HTR2A: 5-hydroxytryptamine receptor 2A (HTR2A, Homo sapiens, UniProt P28223)
AGTR1: Type-1 angiotensin II receptor (AGTR1, Homo sapiens, UniProt P30556)
MMP2: 72 kDa type IV collagenase (MMP2, Homo sapiens, UniProt P08253)
ERN2: Serine/threonine-protein kinase/endoribonuclease IRE2 (ERN2, Homo sapiens, UniProt Q76MJ5)

`Cc1c(OS(=O)(=O)Oc2ccc3ccccc3c2)cccc1C(=O)NO` has an inhibition of 37% (HDAC6; enzyme activity, inhibitor, fluorescence; 10 µM).
For `C=CC(=O)Nc1cccc(Cn2ncc3cnc(Nc4cnn(CCOC)c4)nc32)c1`, “percent of control” read 83% (TYRO3 human; binding, KINOMEscan; 100 nM; lower = stronger binding).
`CC1=NN(c2ccccc2F)C(=O)/C1=N\Nc1ccc(S(N)(=O)=O)cc1` gave an inhibition of 16.7% (Alpha-amylase; enzyme activity, inhibitor, glucose oxidase; 500 µg/mL, added: dextrin).
`CN(Cc1ccc(/C=C/C(=O)NO)cc1)CC12CC3CC(CC(C3)C1)C2` has an inhibition of -3% (human GR receptor; agonist radioligand binding; 0.05 µM).
`Cc1ccc(-c2nn(-c3ccc(S(C)(=O)=O)cc3)cc2/C=N/N=C2/NC(=O)CS2)cc1` has an inhibition of 34.8% (EGFR (Homo sapiens, UniProt P00533); kinase activity, inhibitor; 0.1 µM).
For `C/C=C/C(=O)Nc1ccc2nc(NCCCCCN(C)C)nc(NCCCCCCN(C)C)c2c1`, the inhibition was 47% (PRDM9 (Homo sapiens, UniProt Q9NQV7); enzyme activity, inhibitor, radiometric; 10 µM).
`CN1CCCNC(=O)c2cccc(c2)C(=O)NCCCN(C)CCCNc2cccc3c2C(=O)c2cccc(c2C3=O)NCCC1` has a viability of 15.6% (mouse bone marrow cells; CCK-8; 15 µM, 48 h; baseline: untreated).
For `COCC(=O)N1CCc2cc(-c3csc(NC(=O)c4cc(OC)cc(OC)c4)n3)ccc21`, the inhibition was -1% (NPY2R (Homo sapiens, UniProt P49146); cell-free assay; 10 µM).
For `CC[C@H](C)C(=O)O[C@H]1C[C@@H](C)C=C2C=C[C@H](C)[C@H](CC[C@@H]3CC=CC(=O)O3)[C@H]21`, the inhibition was ~85% (CFTR (Homo sapiens, UniProt P13569); ion current, inhibitor; T84; 5 µM).
`NC(=O)[C@@H](O)C[C@H]1CCc2sc3ncnc(O[C@H]4CC[C@H](N5CCOCC5)CC4)c3c21` gave an inhibition of 1% (TTBK2; enzyme activity, inhibitor; 10 µM).
For `C[Si](C)(C)C[C@@H](CN)CC(=O)O`, the inhibition was -6% (SSTR1; ligand displacement, radioligand; 75 µM).
The translation activity of `O[C@@H](COc1ccc2cc(Br)ccc2c1)Cn1ccnc1` is reported as 67.1% (Trypanosoma cruzi; reporter mRNA translation, inhibitor, item: Renilla luciferase mRNA; cell-free extract; concentration not given, test 3; baseline: positive over negative control).
`CC(=O)Nc1ccc(F)cc1-c1ccncc1` has an inhibition of 47.7% (Uridine nucleoside ribohydrolase; 19F NMR; 50 µM, added: 0.01% Triton X-100).
`Cc1cccc(O[C@H]2CCC[C@@H](C(C)CNCc3ccncc3)C2)c1` (relative stereo) has an inhibition of 0% (SPHK2; enzyme activity, inhibitor; 10 µM).
For `CNS(=O)(=O)Nc1nccc(Cc2c(C)c3ccc(Oc4ncccc4F)cc3oc2=O)c1F`, the IC50 was 859 nM (TOV112D; cell viability; 7 days).
`CCCCCCCCCCCCCCN(O)C(=O)CCCCC[C@@H]1NC(=O)[C@H]([C@@H](C)CC)NC(=O)[C@H](Cc2ccccc2C(F)(F)F)NC(=O)CCSCc2cccc(n2)CSCCCNC1=O` has an inhibition of 30% (HDAC6; enzyme activity, inhibitor, fluorogenic; 30 µM).
`C[Si]1(C[C@H](CN)CC(=O)O)CCCC1` has an inhibition of 0% (SSTR1; ligand displacement, radioligand; 70 µM).
`Cc1cc(C(=O)NCCNC(=O)c2cccc(COc3ccccc3C(N)=O)c2)n[nH]1` gave an inhibition of 100% (TNKS2; enzyme activity, inhibitor; 50 nM).
`O=C(CN1CCO[C@@H](COc2cccc(Cl)c2)C1)N1CCc2ccccc21` gave an inhibition of 62.8% (HTR2A; radioligand binding; concentration not given, added: [3H]ketanserin).
The inhibition of `Cn1cc(-c2ccc(C(N)=O)cc2)cn1` is reported as 100% (Uridine nucleoside ribohydrolase; 19F NMR; 50 µM).
With `CC(=O)C12NC(C)(C)CC1(C)C(=O)C1=C2c2c(c3c4n2C(C)(C)CC2=C4C4(CC(C)(C)NC(C)(C4)C2=O)CC3(C)C)C(=O)C(C)(C)N1` (single isomer, unassigned; (-)) the inhibition was 16.96 ± 0.04% (CHRNA7 (Homo sapiens, UniProt P36544); ion current, antagonist, whole-cell patch clamp; HEK293T; 10 µM).
For `Brc1ccccc1-c1nnc(CSc2nnnn2-c2ccccc2)o1`, the inhibition was 5% (HTR2A; ligand displacement, radioligand; 10 µM).
`CN1CCN(CC(=O)c2ccccc2)C1=O` gave an inhibition of 73.9% (Uridine nucleoside ribohydrolase; 19F NMR; 50 µM, added: 0.01% Triton X-100).
With `CN(C)CCCCCN(C)Cc1cc2ccccc2o1` the translation activity was 86.7% (Trypanosoma cruzi; reporter mRNA translation, inhibitor, item: Renilla luciferase mRNA; cell-free extract; concentration not given, test 1; baseline: positive over negative control).
`N=C(N)NCCCC(NC(=O)C(CC(=O)NO)Cc1ccc2ccccc2c1)C(=O)NC(Cc1c[nH]c2ccccc12)C(=O)NC(CCC(=O)O)C(N)=O` (centres unmarked) gave an inhibition of 6% (Stromelysin-1 (MMP3, Homo sapiens, UniProt P08254); 1 µM).
`COc1ccc(C#CC2=C[C@H]3C[C@@]4(OC(=O)C=C24)[C@H]2CC[C@H](C(OC)OC)N32)cc1` gave an inhibition of 0% (PDE3A (Homo sapiens, UniProt Q14432); cell-free assay, inhibitor; 10 µM).
`Cc1ccnc(OC[C@H]2CN(CCN3CCc4ccccc43)CCO2)c1` has an inhibition of 22.9% (HTR1D (Homo sapiens, UniProt P28221); radioligand binding; concentration not given, added: [3H]5-CT).
`O=C(NCc1cc(F)cc(F)c1)[C@@]1(O)CCN(c2ccc3[nH]ccc3c2)C1=O` — result for inhibition: “no inhibition” (METAP1 (Homo sapiens, UniProt P53582); enzyme activity; 3e-09 and 100 µM).
For `Cc1cccnc1-c1cccc(C#N)c1`, the inhibition was 100% (Uridine nucleoside ribohydrolase; 19F NMR; 100 µM).
`CO[C@@H](C)c1c(NC(=O)Nc2cnc(-n3nccn3)c(C(F)(F)F)c2)cnc2sc(C)nc12` gave an inhibition of -6.6% (AGTR1; ligand displacement, radioligand; 10 µM).
`Cc1nc2c(F)cc(-c3nc(Nc4ccc(CNC(=O)CCCCCCC(=O)NO)cc4)ncc3F)cc2n1C(C)C` has an inhibition of 12% (TTBK2; enzyme activity, inhibitor; 1 µM).
For `O=C(CNc1nc(NNC(=O)c2ccc(Nc3nc(Nc4ccc(C(=O)NNc5nc(NCC(=O)NO)nc(N6CCCCC6)n5)cc4)nc(Nc4ccc(C(=O)NNc5nc(NCC(=O)NO)nc(N6CCCCC6)n5)cc4)n3)cc2)nc(N2CCCCC2)n1)NO`, the inhibition was 48% (MMP2; enzyme activity, inhibitor, fluorescence; 0.0001 µg/mL).
`C=CC(=O)N1Cc2nc(-c3cc(-c4cc(Cl)cnc4Cl)c(F)cc3F)n(-c3ccncn3)c2C1` gave an inhibition of 3.7% (ERN2; cell-free assay, inhibitor; 1 µM).
The inhibition of `O=C(CCCc1ccc2c(c1)OCCO2)NCCNC(=O)Cn1c(=O)[nH]c(=O)c2ccccc21` is reported as 0% (TNKS2; enzyme activity, inhibitor; 5 nM).
The inhibition of `CN(C)C/C=C/C(=O)Nc1ccc2nc(NCCCCCN(C)C)nc(NCCCCCCN(C)C)c2c1` is reported as 48% (SMYD2 (Homo sapiens, UniProt Q9NRG4); enzyme activity, inhibitor, radiometric; 10 µM).
`Cc1cccnc1-c1ccc(C(N)=O)cc1` has an inhibition of 100% (Uridine nucleoside ribohydrolase; 19F NMR; 50 µM).
With `O=C1c2sc(-c3ccc(N4CCC(CO)CC4)nc3F)nc2CCN1c1cccnc1` the inhibition was -9% (CRHR1 (Homo sapiens, UniProt P34998); ligand displacement, radioligand; 1 µM).
For `C=C(NC(=O)c1csc(-c2ccc(NC(=O)CCCCCBr)cc2)n1)C(=O)NC(=C)C(=O)OC`, inhibition read “no inhibition” (Thioredoxin reductase 2, mitochondrial (Txnrd2, Mus musculus, UniProt Q9JLT4); enzyme activity; 50 µM, 1 h, pH 8.0, 37 °C).
`O=C(CC1CC2CCC1C2)NCCNC(=O)Cn1c(=O)[nH]c(=O)c2ccccc21` (centres unmarked) gave an inhibition of 59% (TNKS2; enzyme activity, inhibitor; 0.5 µM).
For `CCn1cc(C(=O)O)c(=O)c2c(N)c(F)c(NC3CCCCC3)cc21`, the inhibition was -2.8% (ERN2; kinase activity; 0.1 µM, added: ATP at Km).
For `N#Cc1ccnc(N2C(=O)CC[C@H]2C(=O)N(c2cncc(F)c2)[C@H](C(=O)NC2CC(F)(F)C2)c2ccccc2Cl)c1`, inhibition read “no inhibition” (PHGDH (Homo sapiens, UniProt O43175); enzyme activity; 100 µM).
`COc1ccc(CN2CC3CCCCN3C2=O)cc1` (centres unmarked) gave an inhibition of 100% (Uridine nucleoside ribohydrolase; 19F NMR; 100 µM).
With `O=C1c2sc(-c3ccc(N4CCC(F)C4)nc3F)nc2CCN1c1cccnc1` (centres unmarked) the inhibition was -6% (AGTR1; ligand displacement, radioligand; 1 µM).
For `C=CC(=O)Nc1cccc(-c2cnc3[nH]cc(C(=O)NC(C)(C)C)c3n2)c1`, the inhibition was 8% and -2% (SPHK2; kinase activity; 0.1 µM).
For `O=C(CNc1nc(Cl)nc(NNC(=O)c2ccc(Nc3nc(Nc4ccc(C(=O)NNc5nc(Cl)nc(NCC(=O)NO)n5)cc4)nc(Nc4ccc(C(=O)NNc5nc(Cl)nc(NCC(=O)NO)n5)cc4)n3)cc2)n1)NO`, the inhibition was 54% (MMP2; enzyme activity, inhibitor, fluorescence; 0.001 µg/mL).
With `N#Cc1c(Nc2ccccc2C(F)(F)F)s[nH]c1=O` the inhibition was 31% (TNKS2; enzyme activity, inhibitor; 10 µM).
`CC1=NN(c2cccc(F)c2)C(=O)/C1=N\Nc1ccc(S(N)(=O)=O)cc1` gave an inhibition of 16.891 ± 0.000383% (Alpha-amylase; enzyme activity, inhibitor, glucose oxidase; 10 µg/mL, added: dextrin).
`Nc1ncc(-c2cc(-c3cnn(CC(F)(F)F)c3)ncc2F)nc1C(=O)NC1CNCC(F)C1` (centres unmarked) has a remaining binding of 82% (ZAK; KINOMEscan; 1 µM; baseline: DMSO control).
`CC(=O)Nc1ccccc1-c1ccc(O)cc1` has an inhibition of 100% (Uridine nucleoside ribohydrolase; 19F NMR; 100 µM).
`COC1CN([C@H]2CC[C@H]([C@@]3(C)Oc4c(Cl)cc(C(=O)NCc5c(SC)cc(C)[nH]c5=O)c(C)c4O3)CC2)C1`: “log2 fold change” 0.0495 (RNA-seq, item: BTBD11 mouse homolog; mouse, HT-1376 xenograft, whole blood; dose not given; baseline: vehicle).

Repeated from above:
The translation activity of `O[C@@H](COc1ccc2cc(Br)ccc2c1)Cn1ccnc1` is reported as 67.1% (Trypanosoma cruzi; reporter mRNA translation, inhibitor, item: Renilla luciferase mRNA; cell-free extract; concentration not given, test 3; baseline: positive over negative control).
For `O=C(CNc1nc(NNC(=O)c2ccc(Nc3nc(Nc4ccc(C(=O)NNc5nc(NCC(=O)NO)nc(N6CCCCC6)n5)cc4)nc(Nc4ccc(C(=O)NNc5nc(NCC(=O)NO)nc(N6CCCCC6)n5)cc4)n3)cc2)nc(N2CCCCC2)n1)NO`, the inhibition was 48% (MMP2; enzyme activity, inhibitor, fluorescence; 0.0001 µg/mL).
For `Cc1cccnc1-c1cccc(C#N)c1`, the inhibition was 100% (Uridine nucleoside ribohydrolase; 19F NMR; 100 µM).
The inhibition of `CN(C)C/C=C/C(=O)Nc1ccc2nc(NCCCCCN(C)C)nc(NCCCCCCN(C)C)c2c1` is reported as 48% (SMYD2 (Homo sapiens, UniProt Q9NRG4); enzyme activity, inhibitor, radiometric; 10 µM).
For `CC[C@H](C)C(=O)O[C@H]1C[C@@H](C)C=C2C=C[C@H](C)[C@H](CC[C@@H]3CC=CC(=O)O3)[C@H]21`, the inhibition was ~85% (CFTR (Homo sapiens, UniProt P13569); ion current, inhibitor; T84; 5 µM).
`Nc1ncc(-c2cc(-c3cnn(CC(F)(F)F)c3)ncc2F)nc1C(=O)NC1CNCC(F)C1` (centres unmarked) has a remaining binding of 82% (ZAK; KINOMEscan; 1 µM; baseline: DMSO control).
`O=C(CN1CCO[C@@H](COc2cccc(Cl)c2)C1)N1CCc2ccccc21` gave an inhibition of 62.8% (HTR2A; radioligand binding; concentration not given, added: [3H]ketanserin).
